Assay results from different studies.
Each line is one published result; not all experiments were run side by side. Values joined by “and” are separate records of one study, mostly repeats; a detail may differ. Numbers after ± are the reported error.
IDE: Insulin-degrading enzyme (IDE, Homo sapiens, UniProt P14735)

Structure (SMILES) | tested on | test | setting | scale | endpoint | value
Cc1cn([C@@H]2O[C@H](CO)[C@@H](O)[C@H]2O)c(=O)nc1N | HBL-1 | – | 0.5 µM, 120 h | – | viability | 111%
COc1ccc(-n2nc(C(C)=O)s/c2=N\N=C(/C)c2ccc(NC(=O)c3ccc(Cl)cc3)cc2)cc1 | HepG2 | – | 1.25 µM | – | viability | 5.72%
O=P(O)(O)C(O)(Cn1ccnc1)P(=O)(O)O | MDA-MB-231 | AlamarBlue | 7.5 µM, 24 h | baseline: control | viability | 97 ± 4%
COc1cc2ncnc(Nc3ccc(Oc4ccccc4)c(C)c3C)c2cc1OC | NCI-H2087 (BRAF L597V) | resazurin | 0.1 µM, 72 h, together with: trametinib | baseline: DMSO | viability | 101%
Cc1cccc(-c2ccc([C@@H]3[C@@H](CO)N4CCCCN(CCC(F)(F)F)C[C@@H]34)cc2)c1 | IDE | enzyme activity, inhibitor, fluorogenic kinetic | together with: Mca-RPPGFSAFK(Dnp)-OH substrate | – | EC50 | 71.5 µM
Nc1ncnc2c1ncn2[C@@H]1O[C@H](CO)[C@@H](O)[C@H]1O | activated human T cells | – | 100 µM, 72 h | higher = more viable cells | viability | 58.4 a.u. and 58.6 a.u. and 44.2 a.u.
COc1cccc(-c2ccc([C@@H]3[C@@H](CO)N4CCCCN(CC5CCOCC5)C[C@@H]34)cc2)c1 | IDE | enzyme activity, inhibitor, fluorogenic kinetic | together with: Mca-RPPGFSAFK(Dnp)-OH substrate | – | EC50 | 30 µM
CNCc1ccc(-c2[nH]c3cc(F)cc4c3c2CCNC4=O)cc1 | HBL-1 | – | 0.5 µM, 120 h | – | viability | 128%
COc1ccc(-n2nc(C(C)=O)s/c2=N\N=C(/C)c2ccc(NC(=O)c3ccccc3)cc2)cc1 | MCF7 | – | 0.078 µM | – | viability | 88.6%
Nc1cccc2c1C(=O)N(C1CCC(=O)NC1=O)C2=O (centres unmarked) | MM1.S | XTT | 1.5 µM | baseline: untreated | viability | 17%
COc1ccc(-n2nc(C(C)=O)s/c2=N\N=C(/C)c2ccc(NC(=O)c3ccc(C)cc3)cc2)cc1 | HepG2 | – | 0.625 µM | – | viability | 17.8%
NC(=O)[C@H](CCCN=C(N)CCl)NC(=O)c1ccccc1 | HBL-1 | – | 1 µM, 120 h | – | viability | 110%
Nc1cccc2c1CN(C1CCC(=O)NC1=O)C2=O (centres unmarked) | bone marrow CD138+ myeloma cells | XTT | 1.8 µM, mean of three patients | – | viability | 8%
O=C(O)c1ccc(O)c2ncccc12 | HBL-1 | – | 1 µM, 120 h | – | viability | 103%
Cc1cccc(-c2[nH]c(CNc3ccccc3F)nc2-c2ccc3ncnn3c2)n1 | MM1.S pomalidomide-resistant | XTT | 1.5 µM | – | viability | 52% and 37% and 46%
O=C(O)CNC(=O)C(=O)O | HBL-1 | – | 0.5 µM, 120 h | – | viability | 124%
COc1cc2ncnc(Nc3ccc(Oc4ccccc4)cc3C)c2cc1OC | NCI-H2087 (BRAF L597V) | resazurin | 0.3 µM, 72 h, together with: trametinib 0 nM | – | viability | 85.5%
